Measured values of several laboratories.
Parts stem from different laboratories: compare values within a part only. Positions count from the first letter of the parent shown.

Set 1 — target: CCND1, cyclin fold, Cln2 fusion (human); technique: yeast growth competition, sequencing; matrix: yeast; notes: weak parent motif; baseline: not given; direction: higher = stronger binding; measurement: normalised enrichment score
Parent: WEE1 docking peptide (human); HKTFRKLRLFDTP
Change = HKTFRKQRLFDTP [L7Q]; value = -0.0154
Change = HKTFRKLALFDTP [R8A]; value = 0.0616
Change = EKTFRKLRLFDTP [H1E]; value = 0.37
Change = HKTFRKLDLFDTP [R8D]; value = 0.14
Change = HKTFRKLREFDTP [L9E]; value = 0.321
Change = HKTFRKLRLFATP [D11A]; value = -0.148
Change = HKTFRKLRDFDTP [L9D]; value = -0.0983
Change = HTTFRKLRLFDTP [K2T]; value = 0.672

Set 2 — technique: RNA Bind-n-Seq; form: RNA; matrix: in vitro; tested at: 200 nM; notes: whole 134-nt RNA, ends assumed; added: 150 mM LiCl; baseline: input library; direction: higher = stronger binding; measurement: log2 enrichment; each molecule: 7-deaza-guanosine replaces G
Target: Fragile X messenger ribonucleoprotein 1, C-terminal low-complexity region (Fmr1, Mus musculus, UniProt P35922)
Strand = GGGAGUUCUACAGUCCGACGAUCCACAGACAACACGCACCCACACAGACACAGAGGGAAGGGGUUGGGAUGGGGACAGGGUGCACAGCAGGGCGGGGUAGGAAACCAGCCCCUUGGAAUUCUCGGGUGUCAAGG; value = 1.65
Strand = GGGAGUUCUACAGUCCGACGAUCACCAUGCAGGUGGGCAUCUUUGGGAAGUGGGGCAAGGGGGGGAUAGGGAGGGGUGUAACACUUUGGGAACAGGUGGUCCCAGGUCGUUUCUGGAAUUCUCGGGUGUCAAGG; value = 1.07
Strand = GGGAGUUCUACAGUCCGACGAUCGUCCUGUGCUACACAUCGUAUGUACCGAAUCGGGUUUUUGGGAAAAAGGGAAAAAGGGAAAGUAUUAUGUUACGCCGUUCGGAUCUGCACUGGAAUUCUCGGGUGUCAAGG; value = -1.18
Strand = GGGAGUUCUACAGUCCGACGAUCUCAAGUCCUGUGCUACACAUCGUAUGUACCGAAUCGGGGUUGGUUGGGGUUGGGAAAGUAUUAUGUUACGCCGUUCGGAUCUGCACUUCCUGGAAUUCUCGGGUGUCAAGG; value = -1.52
Strand = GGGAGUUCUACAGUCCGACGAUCAGUCCUGUGCUACACAUCGUAUGUACCGAAUCGGUUUUUGGUUUUUUUGGAAAAAGGAAAGUAUUAUGUUACGCCGUUCGGAUCUGCACUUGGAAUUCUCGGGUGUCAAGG; value = -2.46
Strand = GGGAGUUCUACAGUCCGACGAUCUCCUGUGCUACACAUCGUAUGUACCGAAUCGUGUGUGUGUGUGUGUGUGUGUGUGUGUGUAAAGUAUUAUGUUACGCCGUUCGGAUCUGCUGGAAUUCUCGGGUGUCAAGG; value = -0.453
Strand = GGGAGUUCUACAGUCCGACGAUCUCCUGUGCUACACAUCGUAUGUACCGAAUCAAAUUUUUUUAAAUUUAAACCCCCCCAAAAAAGUAUUAUGUUACGCCGUUCGGAUCUGCAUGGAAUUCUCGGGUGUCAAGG; value = 2.03
Strand = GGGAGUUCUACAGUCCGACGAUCCUCAAGUCCUGUGCUACACAUCGUAUGUACCGAAUCGGUUUUUGGUUUGGAGGAAAGUAUUAUGUUACGCCGUUCGGAUCUGCACUUCCAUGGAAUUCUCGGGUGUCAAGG; value = -0.554

Set 3 — technique: RNA Bind-n-Seq; form: RNA; matrix: in vitro; tested at: 20 nM; notes: 6-mer, flanks averaged, single round; added: 150 mM LiCl; baseline: input library; direction: higher = stronger binding; measurement: 6-mer enrichment (R)
Target: TAR DNA-binding protein 43, full length, His tag (TARDBP, Homo sapiens, UniProt Q13148, residues 1-414)
Strand = AUCGCU; value = 0.832
Strand = CCGUAG; value = 0.883
Strand = GUGAGC; value = 1.12
Strand = GUAAAA; value = 0.905
Strand = GAUAAG; value = 0.949
Strand = UGCCAA; value = 0.895
Strand = AAAUUA; value = 0.967
Strand = GCCAAG; value = 0.917

Mixed results
Parent: PafA, mature enzyme, eGFP fusion (Elizabethkingia meningoseptica, UniProt Q9KJX5); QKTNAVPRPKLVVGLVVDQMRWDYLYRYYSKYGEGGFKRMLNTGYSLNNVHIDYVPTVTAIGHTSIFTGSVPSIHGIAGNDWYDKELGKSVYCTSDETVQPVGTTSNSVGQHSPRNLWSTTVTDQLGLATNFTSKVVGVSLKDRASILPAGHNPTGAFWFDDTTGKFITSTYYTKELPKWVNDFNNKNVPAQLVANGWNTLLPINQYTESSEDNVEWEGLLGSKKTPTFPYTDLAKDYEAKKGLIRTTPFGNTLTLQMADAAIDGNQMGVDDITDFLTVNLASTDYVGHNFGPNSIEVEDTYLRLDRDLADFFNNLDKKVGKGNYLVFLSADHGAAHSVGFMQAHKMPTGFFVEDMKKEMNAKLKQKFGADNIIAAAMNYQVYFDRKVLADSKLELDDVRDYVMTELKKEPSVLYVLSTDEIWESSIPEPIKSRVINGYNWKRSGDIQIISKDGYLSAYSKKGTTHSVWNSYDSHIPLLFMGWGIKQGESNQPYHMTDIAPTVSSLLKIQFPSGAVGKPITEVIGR
Change = S108V; target = inorganic phosphate, free oxyanion; test = microfluidic competitive inhibition; test system = in vitro, cell-free expressed; setting = not given, derived from inhibition constants, unchanged parent 615000 nM; how to read = lower = stronger binding; measurement = phosphate dissociation constant; value = 704 µM
